Results collected from several papers.
Numbered parts are unrelated; each lists some results of a single study. Positions count from the first letter of the parent shown.
Sequence of UniProt P48729 (whole entry, looked up): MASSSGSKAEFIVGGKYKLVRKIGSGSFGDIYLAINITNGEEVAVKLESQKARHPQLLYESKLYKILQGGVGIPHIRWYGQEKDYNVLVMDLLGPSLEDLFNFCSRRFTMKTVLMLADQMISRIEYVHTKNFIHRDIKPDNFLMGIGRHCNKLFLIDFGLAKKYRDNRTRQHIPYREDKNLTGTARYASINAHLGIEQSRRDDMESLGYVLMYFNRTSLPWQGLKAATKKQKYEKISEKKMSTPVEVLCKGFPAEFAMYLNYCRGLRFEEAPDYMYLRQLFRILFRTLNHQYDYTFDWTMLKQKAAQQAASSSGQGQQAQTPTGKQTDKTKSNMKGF

Block 1
Target: Protein max, full length (MAX, Homo sapiens, UniProt P61244-2, residues 1-151)
Method: protein-binding microarray
Molecule type: double-stranded DNA, one strand shown
Sample: in vitro
Concentration: not given
Setting: k-mer, scored over probes, only values ≥0.25
Reading: higher = stronger binding
Oligonucleotide	E-score
ACGGGTCA	0.252
ACGTGTGA	0.42
CGTGGGCA	0.352
ATGTGGAC	0.312
GGCGTGAC	0.358
CGACCACG	0.392
ACACGCGG	0.472
CATGACCC	0.29

Block 2
Target: CEBPB, bZIP domain (human)
Method: DHFR protein complementation
Sample: yeast
Setting: single substitutions, most at no-binding floor
Baseline: wild-type JUN-FOS pair
Reading: higher = stronger binding
Starting sequence: JUN, bZIP domain (human); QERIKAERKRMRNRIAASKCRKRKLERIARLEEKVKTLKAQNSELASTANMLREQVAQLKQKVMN; partner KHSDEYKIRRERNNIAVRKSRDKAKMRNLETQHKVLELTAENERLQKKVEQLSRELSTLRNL
Change	binding fitness [natural log]
N42F	-1.61
Q41A	-1.35
T48A	-1.37
K34E	-1.36
K34S	-1.42
E32W	-1.48
N42H	-1.47
K39A	-1.38

Block 3
Target: RING finger protein unkempt homolog, zinc fingers 1-6, GST-SBP tag (UNK, Homo sapiens, UniProt Q9C0B0, residues 30-357)
Sequence of UniProt Q9C0B0 (30-357, looked up): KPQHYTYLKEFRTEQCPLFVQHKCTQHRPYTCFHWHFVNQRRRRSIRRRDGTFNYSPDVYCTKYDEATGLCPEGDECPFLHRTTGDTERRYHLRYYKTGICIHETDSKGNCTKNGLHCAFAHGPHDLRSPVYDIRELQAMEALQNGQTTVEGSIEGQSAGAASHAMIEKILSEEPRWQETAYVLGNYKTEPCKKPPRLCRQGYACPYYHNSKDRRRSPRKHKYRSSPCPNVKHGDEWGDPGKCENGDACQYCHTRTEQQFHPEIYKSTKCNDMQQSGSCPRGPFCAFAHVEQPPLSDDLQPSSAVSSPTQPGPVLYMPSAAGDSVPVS
Method: RNA Bind-n-Seq
Molecule type: RNA
Sample: in vitro
Concentration: not given
Setting: RNA with constant flanks, human and mouse sites, ends assumed
Baseline: input RNA pool
Reading: higher = stronger binding
Constant ends, left off below: GGGAGUUCUACAGUCCGACGAUC … CAACAGAGGAUUGAGCAUCA
Oligonucleotide	bound/input enrichment [ratio]
CCUGGGCUCAAAGUUGGCCCUGUUCCAGUAUUGGUUAUGAGUCUUCUGUUCAUCGCUUCUGUAUUUAUGUUGCACAUUUGGGGCAAGUACACUCGUUCGUAGAUUCAGUUACAUCCAUCU	0.311
UUUCUAAUACAGCAGUAUCUUAAAGAAGACUACAGUUUUACAGCUUAUGCUACCAUUUCGUAUUUGAAAAUAGGACCUAAAGCUAAUCUUCUGAACAAUGAGGCACAUGCUAUUACUAUG	0.167
UCUGAUAAACUUAACAAUGGGGGAUCUGAUAGCCCUUGUGACUUGAAAUCACCUAAUGCAUUUAGUGAAAAUCGCCAGGACUAUUUUGAUUAUGAGUCAACCAAUCCAUUUACAGCAAAA	0.259
UAUGUUUACGGAGUCCUGUUUAGUUUGGCAGAAAGCAGAAAGAAAACUGAGAGACUUGCUUUUAGAAAGAACAGACUUCCACCAGAAUUCUCGCCACUGAUCAUUAAGGAGUGGGCAGCU	0.2
UGAUGAAGAGCUGAAGAAAAAAGGCCUCAUAUCCAGUGAUGGAUUCUGCAGAUAUCUGAUGUCAGAUGAAAAUGCCCCUGUCUUCUUAGAUCGCUUAGAACUUUACCAGGAGAUGGACCA	0.196
GGCGGUGGGCGGGGCUCACGCGAGGCGCUGGAACGGUCCGGGAGAUUCUCGCUCUGCUGCUUUAGCUUCGGAGUGUUUGGCGAUGGGGCAGCGCGAGAUGUGGAGGCUCAUGUCGAGGUU	0.217
CACUCCGUCUCAAUAUGUCUCAAGAUGGCGGCCAAUGUGGGAUCGAUGUUUCAAUAUUGGAAGCGCUUUGAUUUACAGCAGCUGCAGAGAGAACUUGAUGCCACCGCAACAGUAUUGGCA	0.169
GAUAGAUUGACGUGUAGAGACUGUCAACUUUUGGAGCACAAAGAACAUAGGUAUCAGUUUUUAGAAGAGGCUUUUCAAAAUCAGAAAGGUGCAAUUGAAAAUCUGUUGGCUAAGCUUCUU	0.915

Other studies, line by line
Structure (SMILES)	target	assay	conditions	measurement	value
Cc1nc(N2CC[C@@H](O)C2)ncc1-c1cc(C(F)(F)F)cc2[nH]ncc12	Casein kinase I isoform alpha (CSNK1A1, Homo sapiens, UniProt P48729)	cell-free assay, competition with immobilised ligand	1 µM	remaining binding	96%

Repeated from above (block 1):
Oligonucleotide	E-score
ATGTGGAC	0.312
GGCGTGAC	0.358
CGACCACG	0.392
ACACGCGG	0.472
